Published values pooled from the literature.
Every numbered part comes from another study and shows a few of its results, in no order. Changes are numbered by the printed parent chain.

Block 1
Target: ABI1, truncated, D143A, DHFR fusion (Arabidopsis thaliana)
Technique: DHFR PCA, deep sequencing
Sample: yeast
Setting: methotrexate growth selection, single substitutions
Added: (+)-ABA 710 µM
Relative to: wild-type fitted maximum
Direction: higher = stronger binding
Parent: PYL1, truncated, DHFR fusion (Arabidopsis thaliana); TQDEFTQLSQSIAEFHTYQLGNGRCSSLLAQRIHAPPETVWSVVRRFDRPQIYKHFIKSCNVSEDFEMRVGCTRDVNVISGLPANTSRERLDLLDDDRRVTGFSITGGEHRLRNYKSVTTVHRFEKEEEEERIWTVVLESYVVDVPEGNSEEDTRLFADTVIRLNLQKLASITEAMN; partner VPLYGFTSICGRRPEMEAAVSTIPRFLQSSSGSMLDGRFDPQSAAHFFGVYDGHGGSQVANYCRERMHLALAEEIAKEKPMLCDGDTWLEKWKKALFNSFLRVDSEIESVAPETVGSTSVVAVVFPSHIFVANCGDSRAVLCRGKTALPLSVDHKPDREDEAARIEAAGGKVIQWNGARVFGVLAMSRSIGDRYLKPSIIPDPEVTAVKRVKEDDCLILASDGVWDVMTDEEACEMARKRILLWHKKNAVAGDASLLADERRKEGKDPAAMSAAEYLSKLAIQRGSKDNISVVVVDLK
Substitution	relative binding score
L82S	60%
S27L	1.86%
R74M	-1.94%
S9K	108%
S104C	84.9%
S150F	80%
L29K	88.2%
Y115N	6.46%
Q2A	108%
A35N	46.2%
T1V	104%
V145F	64.7%
N61I	100%

Block 2
Target: Interferon regulatory factor 7, full length, phosphomimetic (IRF7, Homo sapiens, UniProt Q92985, residues 1-503, S471D/S472D/S475D/S476D/S477D/S483D/S484D/S487D)
Technique: protein-binding microarray
Form: double-stranded DNA, one strand shown
Sample: in vitro
Concentration: 2200 nM top
Setting: 60-bp whole probe
Added: salmon DNA 0.4 mg/ml
Relative to: random background probes
Direction: higher = stronger binding
Constant ends, left off below: GCCTAGCAC … GTCTTGATTCGCTTGACGCTGCTG
Construct (chain): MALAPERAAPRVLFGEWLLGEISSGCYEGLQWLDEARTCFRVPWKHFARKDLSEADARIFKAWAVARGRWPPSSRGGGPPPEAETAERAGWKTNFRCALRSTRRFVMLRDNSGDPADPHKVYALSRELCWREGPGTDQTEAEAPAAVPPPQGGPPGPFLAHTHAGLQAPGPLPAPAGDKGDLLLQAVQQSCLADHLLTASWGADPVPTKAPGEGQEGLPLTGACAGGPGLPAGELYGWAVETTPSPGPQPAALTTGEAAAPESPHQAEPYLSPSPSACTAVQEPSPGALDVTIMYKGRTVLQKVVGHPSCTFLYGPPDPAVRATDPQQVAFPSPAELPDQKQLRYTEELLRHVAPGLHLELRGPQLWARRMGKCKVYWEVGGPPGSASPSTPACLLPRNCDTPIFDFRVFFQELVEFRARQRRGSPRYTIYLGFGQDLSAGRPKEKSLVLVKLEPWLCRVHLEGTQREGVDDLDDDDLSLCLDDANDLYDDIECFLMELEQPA
Oligonucleotide	fitted relative affinity [z-score]
GACGGTATCGACACTGGGCACGTGCTA	-0.457
TTAGATTTCAGCTTCGATTAGTGCTAG	0.539
GACGATATCCGTCTCGAGACGTGCTAG	0.838
TTAGGTTTCGGGAATCGGTTAGTGCTA	2.71
GACCATTTCGGGACTGGAGACGTGCTA	0.904
TTCAATTCCTGAAATCTCTTTGTGCTA	0.577
TTAGGATTGCTTCTCCTTTAGTGCTAG	0.968
TTAGGGATCGACTATCGGTTAGTGCTA	-0.104
CACGGTCTCGGTTTCGGGACGTGCTAG	3.6
TAACTTTCCAATTGTCCTTTCGTGCTA	5.39
TGGGTGACTCTTACTCATTAGTGCTAG	0.331
CACTTTCTTTAACTCATTCTGTGCTAG	2.62
CAGGTTTCTGATGGGCCTAGGTGCTAG	1.94
TTAGGACGGGACTATCGGTTAGTGCTA	-0.515
GACGGTATCGACACTGGCGACGTGCTA	-0.255
TTAGATCTCAGACTGGACTAGTGCTAG	-0.156

Block 3
Target: Ras GTPase-activating protein-binding protein 1, full length (G3BP1, Homo sapiens, UniProt Q13283)
Sequence of UniProt Q13283 (whole entry, looked up): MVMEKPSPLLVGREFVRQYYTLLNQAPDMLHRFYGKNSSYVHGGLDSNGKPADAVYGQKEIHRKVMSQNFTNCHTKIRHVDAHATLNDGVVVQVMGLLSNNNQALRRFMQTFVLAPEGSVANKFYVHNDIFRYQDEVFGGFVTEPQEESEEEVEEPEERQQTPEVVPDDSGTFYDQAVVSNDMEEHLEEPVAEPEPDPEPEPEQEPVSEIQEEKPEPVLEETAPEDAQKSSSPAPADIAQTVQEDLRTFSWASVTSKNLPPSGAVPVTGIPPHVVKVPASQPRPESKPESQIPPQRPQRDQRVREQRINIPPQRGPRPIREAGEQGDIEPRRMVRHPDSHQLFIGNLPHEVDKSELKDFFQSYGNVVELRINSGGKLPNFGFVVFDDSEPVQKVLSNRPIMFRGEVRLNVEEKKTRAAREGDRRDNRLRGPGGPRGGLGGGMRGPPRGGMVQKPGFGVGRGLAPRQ
Technique: RNA Bind-n-Seq
Form: RNA
Sample: in vitro
Concentration: 200 nM
Setting: whole 134-nt RNA, ends assumed
Added: 150 mM LiCl
Relative to: input library
Direction: higher = stronger binding
Library: 7-deaza-guanosine replaces G
Constant ends, left off below: GGGAGUUCUACAGUCCGACGAUC … UGGAAUUCUCGGGUGUCAAGG
Oligonucleotide	log2 enrichment
CUGUGCUACACAUCGUAUGUACCGAAUCGGGGAAAAAGGGGAAAAAGGGGAAAAAAAGGGGAAAGUAUUAUGUUACGCCGUUCGGAUCUG	0.717
CAAGUCCUGUGCUACACAUCGUAUGUACCGAAUCGGGUUUUUGGGAAAGGGAGGGAAAGUAUUAUGUUACGCCGUUCGGAUCUGCACUUC	0.195
UAACUUUAGAGGAGGAUCUGAUGGAUAUGGCAGUGGACGUGGAUUUGGGGAUGGCUAUAAUGGGUAUGGAGAAGGACCUGGAGGUGGCAA	-0.0462
UCAAGUCCUGUGCUACACAUCGUAUGUACCGAAUCGGGAAAGGGAAAGGAAAGGAAAGUAUUAUGUUACGCCGUUCGGAUCUGCACUUCC	-0.555
UCAAGUCCUGUGCUACACAUCGUAUGUACCGAAUCGGGGUUGGGUUGGGUUGGGGAAAGUAUUAUGUUACGCCGUUCGGAUCUGCACUUC	0.633
UUCACAGCCAGCAGGCAUUGGAAUAUGGCACCAAACUCGUUGGAGGAACCACUCCAGGGAAAGGAGGCCAGACACAUCUGGGCUUACCUG	-0.173
GUCCUGUGCUACACAUCGUAUGUACCGAAUCGGGAAAAAGGGUUUUUUUGGGUUUGGGAAAGUAUUAUGUUACGCCGUUCGGAUCUGCAC	-2.32
AAGUCCUGUGCUACACAUCGUAUGUACCGAAUCGGGAAAAGGAAAAGGAAAAGGGGAAAGUAUUAUGUUACGCCGUUCGGAUCUGCACUU	0.0456
UGCAGCAGCGCCAGGAAUCGAGGAUGGUAAAAUGACCCAGGGGAAGAAGAAGAAACGGGCCGCGAACCGCAGUAUCAUGCUGGCCAAGAA	0.204
UCUGGACAUGCAGGUGGACCAGUCAGUGCCAGAGUAAGUUGUUGUUUUCUUAAAAGAAAAAAAAAAAUGUAAAAUCAUCUAACCCUAACC	-0.702
UCCUCAAGUCCUGUGCUACACAUCGUAUGUACCGAAUCGGUGGUUUGGUGGAAAGUAUUAUGUUACGCCGUUCGGAUCUGCACUUCCAGC	0.42

Block 4
Target: JDP2, bZIP domain (human)
Technique: DHFR protein complementation
Sample: yeast
Setting: single substitutions, most at no-binding floor
Relative to: wild-type JUN-FOS pair
Direction: higher = stronger binding
Parent: JUN, bZIP domain (human); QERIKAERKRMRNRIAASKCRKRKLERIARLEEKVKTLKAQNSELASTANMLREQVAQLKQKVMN; partner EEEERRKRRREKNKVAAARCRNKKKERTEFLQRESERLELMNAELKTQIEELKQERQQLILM
Substitution	binding fitness [natural log]
E33V	0.221
A57K	0.31
A57L	0.194
Q55Y	0.173
L45C	0.0148
E54N	0.215
V56M	0.0319
A49C	0.262
S47E	0.349
R30F	0.25
E32C	0.15
R53N	0.201
S43R	0.323
A49E	0.244
T37E	0.308
K34D	0.265
L52V	0.196
Q55D	0.22
N42H	0.297
E32W	0.12
E54G	0.353
V56G	-0.263
T37K	0.322
T48H	0.243
A40H	0.313

Block 5
Target: Sal-like protein 4, full length isoform A (SALL4, Homo sapiens, UniProt Q9UJQ4, residues 1-1053)
Sequence of UniProt Q9UJQ4 (whole entry, looked up): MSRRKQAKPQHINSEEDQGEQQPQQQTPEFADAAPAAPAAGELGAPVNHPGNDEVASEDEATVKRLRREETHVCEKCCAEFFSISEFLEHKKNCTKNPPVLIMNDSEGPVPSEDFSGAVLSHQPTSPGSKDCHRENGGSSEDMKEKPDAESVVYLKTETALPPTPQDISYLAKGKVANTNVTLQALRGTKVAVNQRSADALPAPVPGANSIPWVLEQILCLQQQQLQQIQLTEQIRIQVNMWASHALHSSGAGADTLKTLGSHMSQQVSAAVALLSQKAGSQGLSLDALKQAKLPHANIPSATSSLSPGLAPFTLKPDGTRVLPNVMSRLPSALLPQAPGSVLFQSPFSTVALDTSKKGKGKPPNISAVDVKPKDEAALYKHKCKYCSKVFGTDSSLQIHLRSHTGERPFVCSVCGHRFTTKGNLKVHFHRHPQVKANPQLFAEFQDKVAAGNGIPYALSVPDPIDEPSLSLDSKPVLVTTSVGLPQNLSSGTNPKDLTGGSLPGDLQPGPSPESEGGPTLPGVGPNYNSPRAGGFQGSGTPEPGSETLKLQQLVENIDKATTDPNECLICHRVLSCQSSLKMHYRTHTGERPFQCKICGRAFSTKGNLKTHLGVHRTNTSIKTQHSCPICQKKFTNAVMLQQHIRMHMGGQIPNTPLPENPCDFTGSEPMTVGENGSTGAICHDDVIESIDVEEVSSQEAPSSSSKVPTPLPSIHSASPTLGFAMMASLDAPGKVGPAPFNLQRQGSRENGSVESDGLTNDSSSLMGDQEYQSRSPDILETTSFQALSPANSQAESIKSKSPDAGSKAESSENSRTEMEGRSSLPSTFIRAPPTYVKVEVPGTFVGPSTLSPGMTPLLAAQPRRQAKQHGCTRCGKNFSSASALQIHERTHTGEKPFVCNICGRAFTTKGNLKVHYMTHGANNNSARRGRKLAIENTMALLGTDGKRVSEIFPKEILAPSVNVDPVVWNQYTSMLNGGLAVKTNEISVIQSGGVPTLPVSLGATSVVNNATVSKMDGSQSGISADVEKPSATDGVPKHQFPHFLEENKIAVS
Technique: universal PBM
Form: double-stranded DNA, one strand shown
Sample: in vitro
Concentration: 600 nM
Setting: 8-mer, flanks averaged, mean of replicates
Direction: higher = stronger binding
Oligonucleotide	E-score
GAGCCATA	0.0168
ACATACCC	0.124
ACCTACTA	0.163
AACCACGG	-0.251
ACAACAGT	0.0405
CCTGAGGA	-0.0468
GGAGGCAC	-0.256
AAATGCTG	0.0951
CATCCGGA	-0.224
CGACATGC	-0.0127
AGCTCGAT	-0.0126
AGGAAGTC	-0.0235
CTCCGCGC	-0.306
ACGCTATA	0.184
CCCGCGAG	-0.215
AATGTAAG	0.284
GTGAGGGA	-0.158
ACGGAGAA	-0.000755
GTACATTA	0.282
ACATAAAC	0.33
CGAACAAG	-0.135
ATTATTTG	0.369
AGACTTAA	0.0897
AAGCAGTG	-0.139
CCGCAGCC	-0.266

Block 6
Target: CCND2, cyclin fold, Cln2 fusion (human)
Technique: yeast growth competition, sequencing
Sample: yeast
Setting: weak parent motif
Relative to: not given
Direction: higher = stronger binding
Parent: MASTL docking peptide (human); PMIAKNLMCELDE
Substitution	normalised enrichment score
PMTAKNLMCELDE [I3T]	0.0782
PMIAGNLMCELDE [K5G]	-0.193
PMIAKNLMGELDE [C9G]	-0.0148
PMIAKNLMCNLDE [E10N]	0.204
PNIAKNLMCELDE [M2N]	-0.104
PMIAKNLMCPLDE [E10P]	-0.0869
PMIAKNLMYELDE [C9Y]	-0.329
PMIAKNLMLELDE [C9L]	0.15
PMIHKNLMCELDE [A4H]	0.152
PMINKNLMCELDE [A4N]	0.368
PMIAKALMCELDE [N6A]	-0.14
PMIAKNLMCSLDE [E10S]	-0.252
PMIGKNLMCELDE [A4G]	-0.314
PMIKKNLMCELDE [A4K]	0.31
PMIAKPLMCELDE [N6P]	0.00804
PMIADNLMCELDE [K5D]	0.319
PMIAKNLMCELKE [D12K]	0.233

A few entries again (block 6):
Substitution	normalised enrichment score
PMIAGNLMCELDE [K5G]	-0.193
PMIAKNLMGELDE [C9G]	-0.0148
PMIAKNLMCNLDE [E10N]	0.204
PNIAKNLMCELDE [M2N]	-0.104
PMIAKNLMCPLDE [E10P]	-0.0869
PMIAKNLMYELDE [C9Y]	-0.329
PMIAKNLMLELDE [C9L]	0.15
PMIHKNLMCELDE [A4H]	0.152
PMINKNLMCELDE [A4N]	0.368
PMIAKALMCELDE [N6A]	-0.14
PMIAKNLMCSLDE [E10S]	-0.252
PMIGKNLMCELDE [A4G]	-0.314
PMIKKNLMCELDE [A4K]	0.31
PMIAKPLMCELDE [N6P]	0.00804
